{"data": "Published values gathered from unrelated publications", "organism": "Enterococcus faecalis", "note": "Each line is one published result; not all experiments were run side by side."}
{"Compound": "CN[C@H](CC(C)C)C(=O)N[C@H]1C(=O)N[C@@H](CC(N)=O)C(=O)N[C@H]2C(=O)N[C@H]3C(=O)N[C@H](C(=O)N[C@H](C(=O)O)c4cc(O)cc(O)c4-c4cc3ccc4O)[C@H](O)c3ccc(c(Cl)c3)Oc3cc2cc(c3O[C@@H]2O[C@H](CO)[C@@H](O)[C@H](O)[C@H]2O[C@H]2C[C@](C)(N)[C@H](O)[C@H](C)O2)Oc2ccc(cc2Cl)[C@H]1O", "system": "ATCC 29212", "conditions": "1 strain", "MIC": "1 mg/L"}
{"Compound": "Cc1ccc2[nH]nc(-c3nnc(Nc4ccc(Cl)c(Br)c4)s3)c2c1", "system": "ATCC 2942", "MIC": "174 mg/L"}
{"Compound": "C[N+](C)(C)CCCN", "system": "BM4166, VanA vancomycin-resistant", "MIC": "> 800 mg/L"}
{"Compound": "CN(C)[C@@H]1C(O)=C(C(N)=O)C(=O)[C@@]2(O)C(O)=C3C(=O)c4c(O)cnc(F)c4C[C@H]3C[C@@H]12.Cl", "assay": "broth microdilution CLSI", "system": "ATCC 29212", "MIC": "4 mg/L"}
{"Compound": "Cc1cc(Nc2nnc(-c3n[nH]c4ccc(C)cc34)s2)cc([N+](=O)[O-])c1", "system": "ATCC 2942", "MIC": "122 mg/L"}
{"Compound": "C=C/C=C(\\C)CC[C@H]1C[C@@H](O)CC(=O)O1", "assay": "broth microdilution", "system": "KCTC 3511", "MIC": "256 mg/L"}
{"Compound": "CN(C)c1ncc(O)c2c1C[C@H]1C[C@H]3[C@H](N(C)C)C(O)=C(C(N)=O)C(=O)[C@@]3(O)C(O)=C1C2=O.Cl.Cl", "assay": "broth microdilution CLSI", "system": "ATCC 29212", "MIC": "1 mg/L"}
{"Compound": "Cc1ccc2[nH]nc(-c3nnc(Nc4ccc(Cl)cc4)s3)c2c1", "system": "ATCC 2942", "MIC": "32.8 mg/L"}
{"Compound": "COCCNc1nc(Cl)c2c(c1O)C(=O)C1=C(O)[C@]3(O)C(=O)C(C(N)=O)=C(O)[C@@H](N(C)C)[C@@H]3C[C@@H]1C2.Cl.Cl.Cl", "assay": "broth microdilution CLSI", "system": "ATCC 29212", "MIC": "0.25 mg/L"}
{"Compound": "C[C@@H](O)[C@H]1C(=O)N2C(C(=O)O)=C(S[C@@H]3CN[C@H](C(=O)N(C)C)C3)[C@H](C)[C@H]12", "assay": "broth microdilution", "conditions": "18 h", "MIC": "0.25 mg/L"}
{"Compound": "CC[C@H]1OC(=O)[C@H](C)[C@@H](O[C@H]2C[C@@](C)(OC)[C@@H](O)[C@H](C)O2)[C@H](C)[C@@H](O[C@@H]2O[C@H](C)C[C@H](N(C)C)[C@H]2O)[C@](C)(O)C[C@@H](C)CN(C)[C@H](C)[C@@H](O)[C@]1(C)O", "system": "ATCC 2942", "MIC": "< 98 mg/L"}
{"Compound": "CCCNc1nc(N(C)C)c2c(c1O)C(=O)C1=C(O)[C@]3(O)C(=O)C(C(N)=O)=C(O)[C@@H](N(C)C)[C@@H]3C[C@@H]1C2.Cl.Cl", "assay": "broth microdilution CLSI", "system": "ATCC 29212", "MIC": "> 32 mg/L"}
{"Compound": "CC[C@H](C)[C@H](NC(=O)[C@H](CCCCN)NC(=O)[C@H](CCC(=O)O)NC(=O)[C@H](CCCCN)NC(=O)[C@H](CO)NC(=O)[C@H](CCCCN)NC(=O)[C@H](CCCNC(=N)N)NC(=O)[C@H](Cc1ccccc1)NC(=O)[C@H](Cc1ccccc1)NC(=O)[C@H](CC(=O)O)NC(=O)CNC(=O)[C@H](CC(C)C)NC(=O)[C@@H](N)CC(C)C)C(=O)NCC(=O)N[C@@H](CCCCN)C(=O)N[C@@H](CCC(=O)O)C(=O)N[C@@H](Cc1ccccc1)C(=O)N[C@@H](CCCCN)C(=O)N[C@@H](CCCNC(=N)N)C(=O)N[C@H](C(=O)N[C@H](C(=O)N[C@@H](CCC(N)=O)C(=O)N[C@@H](CCCNC(=N)N)C(=O)N[C@H](C(=O)N[C@@H](CCCCN)C(=O)N[C@@H](CC(=O)O)C(=O)N[C@@H](Cc1ccccc1)C(=O)N[C@@H](CC(C)C)C(=O)N[C@@H](CCCNC(=N)N)C(=O)N[C@@H](CC(N)=O)C(=O)N[C@@H](CC(C)C)C(=O)N[C@H](C(=O)N1CCC[C@H]1C(=O)N[C@@H](CCCNC(=N)N)C(=O)N[C@H](C(=O)N[C@@H](CCC(=O)O)C(=O)N[C@@H](CO)C(=O)O)[C@@H](C)O)C(C)C)[C@@H](C)CC)C(C)C)[C@@H](C)CC", "system": "ATCC 29212", "conditions": "highest concentration 50 µM", "MIC": "16.7 µM"}
{"Compound": "CN(C)c1cc(NC(=O)CNC(C)(C)C)c(O)c2c1C[C@H]1C[C@H]3[C@H](N(C)C)C(O)=C(C(N)=O)C(=O)[C@@]3(O)C(O)=C1C2=O", "assay": "broth microdilution CLSI", "system": "ATCC 29212", "MIC": "0.031 mg/L"}
{"Compound": "Cc1ccc2[nH]nc(-c3nnc(Nc4ccc(Br)cc4)s3)c2c1", "system": "ATCC 2942", "MIC": "199 mg/L"}
{"note": "A few entries again:"}
{"Compound": "COCCNc1nc(Cl)c2c(c1O)C(=O)C1=C(O)[C@]3(O)C(=O)C(C(N)=O)=C(O)[C@@H](N(C)C)[C@@H]3C[C@@H]1C2.Cl.Cl.Cl", "assay": "broth microdilution CLSI", "system": "ATCC 29212", "MIC": "0.25 mg/L"}
{"Compound": "C[C@@H](O)[C@H]1C(=O)N2C(C(=O)O)=C(S[C@@H]3CN[C@H](C(=O)N(C)C)C3)[C@H](C)[C@H]12", "assay": "broth microdilution", "conditions": "18 h", "MIC": "0.25 mg/L"}
